# Measured values of several laboratories.
# Each line is one published result; not all experiments were run side by side. Numbers after ± are the reported error.
# Organism: SARS-CoV-2
Compound,assay,system,conditions,IC50
CC[C@H](C)[C@@H]1NC(=O)[C@H](CCC(N)=O)NC(=O)[C@H](CCC(=O)O)NC(=O)[C@H](CCCNC(=N)N)NC(=O)[C@@H]2CCCN2C(=O)[C@H](CCCNC(=N)N)NC(=O)[C@H](CCCNC(=N)N)NC(=O)[C@H](Cc2ccc(O)cc2)NC(=O)CSC[C@@H](C(=O)NCC(N)=O)NC(=O)[C@H](Cc2ccccc2)NC(=O)[C@H](C(C)C)NC(=O)[C@H](Cc2c[nH]c3ccccc23)NC(=O)[C@H](CC(C)C)NC(=O)[C@H](CO)NC(=O)CNC(=O)[C@H]([C@@H](C)CC)NC(=O)[C@H]([C@@H](C)CC)NC1=O,,"HEK293 ACE2 TMPRSS2, ancestral Wuhan",,5200 nM
CCCCCCOP(=O)(O)Oc1c2c(c(OP(=O)(O)OCCCCCC)c3c1C1CC3c3cc4c(cc31)C1CC4c3ccccc31)C1CC2c2cc3c(cc21)C1CC3c2ccccc21,spike pseudoparticle entry,Caco-2,,1700 nM
CCN(CC)CCCC(C)Nc1c2cc(Cl)ccc2nc2ccc(OC)cc12 (centres unmarked),viral replication,"U2OS, BetaCoV/France/IDF0372/2020",,410 nM
CC1OC(OC2C(OC(=O)C34CCC(C)(C)CC3C3=CCC5C6(C)CCC(OC7OC(CO)C(O)C(O)C7O)C(C)(C)C6CCC5(C)C3(C)CC4)OCC(O)C2O)C(O)C(O)C1OC1OCC(O)C(OC2OCC(O)C(O)C2O)C1O (centres unmarked),"pseudovirus cell entry, luciferase reporter",NCI-H1299 ACE2-expressing,24 h,1330 nM
COP(=O)(O)Oc1c2c(c(OP(=O)(O)OC)c3c1C1CC3c3cc4c(cc31)C1CC4c3ccccc31)C1CC2c2cc3c(cc21)C1CC3c2ccccc21,spike pseudoparticle entry,Caco-2,,23600 nM
Cc1ccc(N2CC(N3CCC(C)(O)CC3)C2)cc1C(=O)NC1(c2ccc3c4c(cccc24)CC3)CC1,viral replication,"Vero C1008, XBB.1",,155 ± 10 nM
O=C(O)CCOP(=O)(O)Oc1c2c(c(OP(=O)(O)OCCC(=O)O)c3c1C1CC3c3cc4c(cc31)C1CC4c3ccccc31)C1CC2c2cc3c(cc21)C1CC3c2ccccc21,spike pseudoparticle entry,Caco-2,,29600 nM
Cc1cc(C)n(-c2nc(-c3ccccc3)cc(=O)n2CC(=O)Nc2cccc([N+](=O)[O-])c2)n1,"cytopathic effect, live virus",Omicron BA.4,,400 nM
CCc1ccc(COP(=O)(O)Oc2c3c(c(OP(=O)(O)OCc4ccc(CC)cc4)c4c2C2CC4c4cc5c(cc42)C2CC5c4ccccc42)C2CC3c3cc4c(cc32)C2CC4c3ccccc32)cc1,spike pseudoparticle entry,Caco-2,,6900 nM
COc1ccc2nc3ccc(C(F)(F)F)cc3c(Nc3ccc(O)c(CN4CCCC4)c3)c2c1,viral replication,"U2OS, BetaCoV/France/IDF0372/2020",,1900 nM
O=c1c2ccccc2[se]n1-c1cccc(F)c1,,,,19900 nM
O=C(Nc1ccc([N+](=O)[O-])cc1Cl)c1cc(Cl)ccc1O,viral replication,Vero E6,,330 nM
COc1ccc2nc3ncccc3c(Nc3cc(CN4CCCC4)c(O)c(CN4CCCC4)c3)c2c1,viral replication,"U2OS, BetaCoV/France/IDF0372/2020",,1950 nM
CC1(C)CCC2(C(=O)OC3OCC(O)C(O)C3O)CCC3(C)C(=CCC4C5(C)CCC(OC6OC(CO)C(O)C(O)C6O)C(C)(C)C5CCC43C)C2C1 (centres unmarked),"pseudovirus cell entry, luciferase reporter",NCI-H1299 ACE2-expressing,24 h,> 10000 nM
Cc1oc2nc1C(=O)N[C@](C)(C(=O)OC(C)C)c1nc(c(C)o1)C(=O)N[C@](C)(C(=O)OC(C)C)c1nc(c(C)o1)C(=O)N[C@]2(C)C(=O)OC(C)C,viral replication,"Vero E6, NRC-03-nhCoV",72 h,18300 nM
CN(C)Cc1cc(Nc2c3ccc(Cl)cc3nc3ccc(Cl)cc23)cc(CN(C)C)c1O,viral replication,"U2OS, BetaCoV/France/IDF0372/2020",,10200 nM
CC[C@@]1(O)C[C@H](O[C@H]2C[C@H](N(C)C)[C@H](O[C@H]3C[C@H](O)[C@H](O[C@H]4CCC(=O)[C@H](C)O4)[C@H](C)O3)[C@H](C)O2)c2c(cc3c(c2O)C(=O)c2c(O)cccc2C3=O)[C@H]1C(=O)OC,"viral replication, RT-qPCR, refers to: viral RNA in supernatant","Calu-3, RIM-1",,56 nM
CC(C)COP(=O)(O)Oc1c2c(c(OP(=O)(O)OCC(C)C)c3c1C1CC3c3cc4c(cc31)C1CC4c3ccccc31)C1CC2c2cc3c(cc21)C1CC3c2ccccc21,spike pseudoparticle entry,Caco-2,,24300 nM
CC1OC(OC2C(OC(=O)C34CCC(C)(C)CC3C3=CCC5C6(C)CCC(OC7OC(CO)C(O)C(O)C7O)C(C)(C)C6CCC5(C)C3(C)CC4O)OCC(O)C2O)C(O)C(O)C1OC1OCC(O)C(OC2OCC(O)C(O)C2O)C1O (centres unmarked),"pseudovirus cell entry, luciferase reporter",NCI-H1299 ACE2-expressing,24 h,640 nM
Cc1ccc(N2CCN(C)CC2)cc1C(=O)NC1(c2ccc3c4c(cccc24)CC3)CC1,viral replication,"Vero C1008, XBB.1",,466 ± 35.1 nM
CC1OC(OC2C(OC(=O)C34CCC(C)(C)CC3C3=CCC5C6(C)CCC(O)C(C)(C)C6CCC5(C)C3(C)CC4)OCC(O)C2O)C(O)C(O)C1OC1OCC(O)C(OC2OCC(O)C(O)C2O)C1O (centres unmarked),"pseudovirus cell entry, luciferase reporter",NCI-H1299 ACE2-expressing,24 h,> 10000 nM
O=P(O)(OCCCc1ccccc1)Oc1c2c(c(OP(=O)(O)OCCCc3ccccc3)c3c1C1CC3c3cc4c(cc31)C1CC4c3ccccc31)C1CC2c2cc3c(cc21)C1CC3c2ccccc21,spike pseudoparticle entry,Caco-2,,1500 nM
CC(C)CC(=O)OC1C=CC=CC(=O)OC2C(C)CC3C2(O)C(O)C2(C)OC2C2C4OC5(c6ccccc6)OC(C(C)C23O5)C4(O)C(C)(O)CC2CCC1C2C (centres unmarked),viral replication,Vero E6,,60 nM

# Repeated from above:
Compound,assay,system,conditions,IC50
CC[C@@]1(O)C[C@H](O[C@H]2C[C@H](N(C)C)[C@H](O[C@H]3C[C@H](O)[C@H](O[C@H]4CCC(=O)[C@H](C)O4)[C@H](C)O3)[C@H](C)O2)c2c(cc3c(c2O)C(=O)c2c(O)cccc2C3=O)[C@H]1C(=O)OC,"viral replication, RT-qPCR, refers to: viral RNA in supernatant","Calu-3, RIM-1",,56 nM
CC1OC(OC2C(OC(=O)C34CCC(C)(C)CC3C3=CCC5C6(C)CCC(OC7OC(CO)C(O)C(O)C7O)C(C)(C)C6CCC5(C)C3(C)CC4O)OCC(O)C2O)C(O)C(O)C1OC1OCC(O)C(OC2OCC(O)C(O)C2O)C1O (centres unmarked),"pseudovirus cell entry, luciferase reporter",NCI-H1299 ACE2-expressing,24 h,640 nM
Cc1oc2nc1C(=O)N[C@](C)(C(=O)OC(C)C)c1nc(c(C)o1)C(=O)N[C@](C)(C(=O)OC(C)C)c1nc(c(C)o1)C(=O)N[C@]2(C)C(=O)OC(C)C,viral replication,"Vero E6, NRC-03-nhCoV",72 h,18300 nM
CCCCCCOP(=O)(O)Oc1c2c(c(OP(=O)(O)OCCCCCC)c3c1C1CC3c3cc4c(cc31)C1CC4c3ccccc31)C1CC2c2cc3c(cc21)C1CC3c2ccccc21,spike pseudoparticle entry,Caco-2,,1700 nM
